Results collected from several papers.
Each numbered part is a random draw from the data of one study; scales do not carry over between parts. Several values in a cell are separate wells, animals, samples, runs or records.

Set 1
Organism: Sarcocystis neurona
Read-out: parasite growth
Concentration: 10 µM
Time: 96 h
SMILES | inhibition
CN1CCN(CCCN2c3ccccc3Sc3ccc(C(F)(F)F)cc32)CC1 | -2.1%
CN1[C@@H]2C[C@@H](OC(=O)[C@H](CO)c3ccccc3)C[C@H]1[C@@H]1O[C@@H]12 | -18%
CC(COc1ccccc1)NC(C)C(O)c1ccc(O)cc1 (stereo not shown) | -12%
CCc1ccc(CCOc2ccc(CC3SC(=O)NC3=O)cc2)nc1 (stereo not shown) | -10.5%
CC(C)[C@H](N)C(=O)OCCOCn1cnc2c(=O)[nH]c(N)nc21 | -8.2%
CC1(C)S[C@@H]2[C@H](NC(=O)[C@H](N)c3ccccc3)C(=O)N2[C@H]1C(=O)O | -11%
CC1(C)O[C@@H]2C[C@H]3[C@@H]4C[C@H](F)C5=CC(=O)C=C[C@]5(C)[C@@]4(F)[C@@H](O)C[C@]3(C)[C@]2(C(=O)CO)O1 | -2.9%
CCOC(=O)[C@@]1(CCCCCCOc2ccc(Cl)cc2)CO1 | -16.5%
NC(=O)c1cnccn1 | -14.8%
C=CCc1ccc(O)c(-c2ccc(O)c(CC=C)c2)c1 | -16.4%
Clc1ccc(COC(Cn2ccnc2)c2ccc(Cl)cc2Cl)cc1 (stereo not shown) | 1.4%
CCN1CCN(C(=O)N[C@@H](C(=O)N[C@@H]2C(=O)N3[C@@H]2SC(C)(C)[C@@H]3C(=O)O)c2ccccc2)C(=O)C1=O | -17.9%
CCCCc1nc(Cl)c(CO)n1Cc1ccc(-c2ccccc2-c2nn[nH]n2)cc1 | -13.9%
Cc1cccc(Nc2ccncc2S(=O)(=O)NC(=O)NC(C)C)c1 | -15.2%

Set 2
Target: Lymphokine-activated killer T-cell-originated protein kinase (PBK, Homo sapiens, UniProt Q96KB5)
Read-out: enzyme activity
Action: inhibitor
Concentration: 0.5 µM
Baseline: control
Construct (Q96KB5 1-322): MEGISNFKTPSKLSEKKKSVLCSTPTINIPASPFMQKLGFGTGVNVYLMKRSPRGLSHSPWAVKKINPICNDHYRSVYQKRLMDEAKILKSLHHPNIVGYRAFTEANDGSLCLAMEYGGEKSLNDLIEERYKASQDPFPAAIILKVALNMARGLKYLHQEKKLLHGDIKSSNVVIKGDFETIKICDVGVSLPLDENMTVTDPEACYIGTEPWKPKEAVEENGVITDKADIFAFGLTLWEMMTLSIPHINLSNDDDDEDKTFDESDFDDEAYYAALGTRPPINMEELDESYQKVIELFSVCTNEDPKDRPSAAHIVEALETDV
Compound | remaining activity [%]
CN(C)CCCn1cc(C2=C(c3c[nH]c4ccccc34)C(=O)NC2=O)c2ccccc21 | 81.3
COc1cc2ncnc(Nc3ccc(OCc4ccccc4)cc3)c2cc1OC | 109
C[S+]([O-])c1ccc(-c2nc(-c3ccncc3)c(-c3ccc(F)cc3)[nH]2)cc1 (stereo not shown) | 102
COc1cc2ncnc(N3CCN(C(=O)Nc4ccc(Oc5ccccc5)cc4)CC3)c2cc1OC | 85.8
CCC(=O)Nc1ccc2ncnc(Nc3cccc(Br)c3)c2c1 | 96.2
O=C(Nc1ccc(Cl)cc1)c1ccccc1NCc1ccncc1 | 88.5
O=c1cc(N2CCOCC2)oc2c1ccc1ccccc12 | 103
Cn1cc(/C=C2\C(=O)Nc3ccc(S(N)(=O)=O)cc32)c2ccccc21 | 99.6
COc1ccc(-c2cnc3c(-c4ccsc4)cnn3c2)cc1 | 91.6
CC(C)c1nn(-c2c(Cl)cccc2Cl)c2nc(Cc3ccc(OCCO)cc3)[nH]c(=O)c12 | 101
O=C1NC(=O)/C(=C/c2ccc3nccnc3c2)S1 | 93
Cn1cnc2cc3c(Nc4cccc(Br)c4)ncnc3cc21 | 102
COc1cc2ncc(-c3ccccc3)nc2cc1OC | 85.5
CCOc1cc2ncnc(Nc3cccc(Br)c3)c2cc1OCC | 102
CS(=O)(=O)CCNCc1ccc(-c2ccc3ncnc(Nc4ccc(OCc5cccc(F)c5)c(Cl)c4)c3c2)o1 | 105
Cc1nc(Nc2ncc(C(=O)Nc3c(C)cccc3Cl)s2)cc(N2CCN(CCO)CC2)n1 | 101
Cc1ccc(NC(=O)c2ccc(CN3CCN(C)CC3)cc2)cc1Nc1nccc(-c2cccnc2)n1 | 101
CC(=O)O/N=C1/C(c2c(O)[nH]c3cc(Br)ccc23)=Nc2ccccc21 | 76.8
CC(C)[C@H](CO)Nc1nc(Nc2cccc(Cl)c2)c2ncn(C(C)C)c2n1 | 102
CCN1/C(=C/C(C)=O)Sc2ccc(OC)cc21 | 94.8
COc1ccc(Cl)cc1NC(=O)Nc1cc(C)nc2ccccc12 | 98.5
Nc1[nH]nc2nnc(-c3c(-c4ccccc4)nn4ccccc34)cc12 | 95

Set 3
Cell line: mouse MPNST tumor cells
Technique: high-content immunofluorescence imaging
Measured: nuclear SOX9
Concentration: 10 µM
Time: 12 h
Setting: mean of 2 replicates
Baseline: DMSO control
Direction: higher = more nuclear SOX9
SMILES | nuclear SOX9 intensity
O=C(O)C1(C(=O)O)CCC1.[NH2-].[NH2-].[Pt+2] | 97.3 % of DMSO
N#CC(CCCN1CCN(/N=C/c2cccnc2)CC1)(c1ccccc1)c1ccccc1 | 98.4 % of DMSO
COC(=O)C(N)Cc1ccc(Cl)cc1 (stereo not shown) | 93.5 % of DMSO
O=C(O)c1cc(/N=N/c2ccc(S(=O)(=O)Nc3ccccn3)cc2)ccc1O | 101 % of DMSO and 83.9 % of DMSO
O=S(=O)(c1ccccc1)N(CC(F)(F)F)c1ccc(C(O)(C(F)(F)F)C(F)(F)F)cc1 | 97 % of DMSO
CC1(C)S[C@@H]2[C@H](NC(=O)[C@H](NC(=O)N3CCNC3=O)c3ccccc3)C(=O)N2[C@H]1C(=O)O | 93.4 % of DMSO
NC(=O)c1cccc(-c2cccc(OC(=O)NC3CCCCC3)c2)c1 | 104 % of DMSO
c1coc(CNc2ncnc3nc[nH]c23)c1 | 114 % of DMSO
CC(C)Cc1sc(N)nc1-c1ccc(P(=O)(O)O)o1 | 100 % of DMSO
CCCCc1nn(-c2ccccc2C(F)(F)F)c(=O)n1Cc1ccc(-c2ccccc2S(=O)(=O)NC(=O)c2sccc2C)cc1 | 121 % of DMSO
CCCCNc1ncc(C(=O)NCc2ccc(-n3ccnc3)cc2)c(NC2CCC(O)CC2)n1 (stereo not shown) | 88.6 % of DMSO
COc1ccc2cc(CCC(C)=O)ccc2c1 | 98.9 % of DMSO
Cn1cnc([N+](=O)[O-])c1Sc1ncnc2[nH]cnc12 | 91.5 % of DMSO and 106 % of DMSO
Nc1nc(N)c2nc(-c3ccccc3)c(N)nc2n1 | 129 % of DMSO
CNC(=C[N+](=O)[O-])NCCSCc1csc(CN(C)C)n1 | 94.6 % of DMSO and 94.1 % of DMSO
c1ccc(N2CCN(CCCOc3ccc4c(c3)OCO4)CC2)cc1 | 96.7 % of DMSO

Set 4
SMILES: COc1cc(C(=O)N2CCC(N3CCN(C)CC3)CC2)ccc1Nc1ncc2c(n1)N(C)c1ccccc1C(=O)N2C
Technique: KINOMEscan
Concentration: 10 µM
Baseline: DMSO control
Direction: lower = stronger binding
target | binding [%]
MYLK4 | 80
DRAK1 | 100
ULK3 | 100
MEK3 | 75
GSK3B | 88
CAMK2D | 28
CSNK1G3 | 93
ADCK4 | 94
YANK3 | 100
PCTK1 | 96
MAP3K3 | 97
CDC2L5 | 100

Excerpt of the above (set 2):
Compound | remaining activity [%]
COc1ccc(-c2cnc3c(-c4ccsc4)cnn3c2)cc1 | 91.6
CC(C)c1nn(-c2c(Cl)cccc2Cl)c2nc(Cc3ccc(OCCO)cc3)[nH]c(=O)c12 | 101
O=C1NC(=O)/C(=C/c2ccc3nccnc3c2)S1 | 93
Cn1cnc2cc3c(Nc4cccc(Br)c4)ncnc3cc21 | 102
COc1cc2ncc(-c3ccccc3)nc2cc1OC | 85.5
CCOc1cc2ncnc(Nc3cccc(Br)c3)c2cc1OCC | 102
CS(=O)(=O)CCNCc1ccc(-c2ccc3ncnc(Nc4ccc(OCc5cccc(F)c5)c(Cl)c4)c3c2)o1 | 105
Cc1nc(Nc2ncc(C(=O)Nc3c(C)cccc3Cl)s2)cc(N2CCN(CCO)CC2)n1 | 101
Cc1ccc(NC(=O)c2ccc(CN3CCN(C)CC3)cc2)cc1Nc1nccc(-c2cccnc2)n1 | 101
